Experimental data collected from several papers.
Compare with care: the assays were run in different laboratories. In brackets after ≈: the same amount, converted by molar mass.
Organism: Klebsiella pneumoniae

Compound = CCCC(=O)NCC(=O)N[C@@H](CC(C)C)C(=O)N[C@@H](CC(C)C)C(=O)N[C@@H](CCCCN)C(=O)N[C@@H](CCCNC(=N)N)C(=O)N[C@H](C(=O)N[C@@H](CCCCN)C(=O)N[C@H](C(=O)N[C@@H](CC(C)C)C(=O)N[C@@H](CC(C)C)C(=O)NCCCC[C@H](NC(=O)[C@H](CC(C)C)NC(=O)[C@H](CC(C)C)NC(=O)[C@@H](NC(=O)[C@H](CCCCN)NC(=O)[C@@H](NC(=O)[C@H](CCCNC(=N)N)NC(=O)[C@H](CCCCN)NC(=O)[C@H](CC(C)C)NC(=O)[C@H](CC(C)C)NC(=O)CNC(=O)CCC)[C@@H](C)CC)[C@@H](C)O)C(N)=O)[C@@H](C)O)[C@@H](C)CC; test = checkerboard; system = ATCC 700603; setting = together with: rifampicin; endpoint = FIC index; result = 0.375
Compound = NC(CNC(CNC(CC(=O)O)C(=O)O)C(=O)O)C(=O)O (stereo not drawn); system = N11-2218 NDM-1-positive, CD-1 mice; setting = dose not given; endpoint = tissue bacterial load; result = no effect
Compound = C[C@H]1COc2c(N3CCN(C)CC3)c(F)cc3c(=O)c(C(=O)N[C@@H](CCCNC(=N)N)C(=O)N[C@@H](Cc4ccc(-c5ccccc5)cc4)C(=O)N[C@@H](CCCNC(=N)N)C(=O)N[C@@H](Cc4ccc(-c5ccccc5)cc4)C(=O)N[C@@H](CCCNC(=N)N)C(N)=O)cn1c23; system = ATCC 2814; scale = relative to: IC50 MDCK cells over MIC; endpoint = selectivity index; result = 4.4
Compound = COc1ccc2ccc3c(c2c1)C=[N+]1C2CCCCC2[N+]2=Cc4cc(C(C)(C)C)ccc4[O][Au-]21[O]3.F[P-](F)(F)(F)(F)F (stereo not drawn); test = bacterial growth, broth microdilution; system = carbapenem-resistant clinical isolate; setting = 24 h; endpoint = MIC; result = 10 µM
Compound = CCCCCC(=O)NCC(=O)N[C@@H](CC(C)C)C(=O)N[C@@H](CC(C)C)C(=O)N[C@@H](CCCCN)C(=O)N[C@@H](CCCNC(=N)N)C(=O)N[C@H](C(=O)N[C@@H](CCCCN)C(=O)N[C@H](C(=O)N[C@@H](CC(C)C)C(=O)N[C@@H](CC(C)C)C(=O)NCCCC[C@H](NC(=O)[C@H](CCCCNC(=O)[C@H](CC(C)C)NC(=O)[C@H](CC(C)C)NC(=O)[C@@H](NC(=O)[C@H](CCCCN)NC(=O)[C@@H](NC(=O)[C@H](CCCNC(=N)N)NC(=O)[C@H](CCCCN)NC(=O)[C@H](CC(C)C)NC(=O)[C@H](CC(C)C)NC(=O)CNC(=O)CCCCC)[C@@H](C)CC)[C@@H](C)O)NC(=O)[C@H](CC(C)C)NC(=O)[C@H](CC(C)C)NC(=O)[C@@H](NC(=O)[C@H](CCCCN)NC(=O)[C@@H](NC(=O)[C@H](CCCNC(=N)N)NC(=O)[C@H](CCCCN)NC(=O)[C@H](CC(C)C)NC(=O)[C@H](CC(C)C)NC(=O)CNC(=O)CCCCC)[C@@H](C)CC)[C@@H](C)O)C(N)=O)[C@@H](C)O)[C@@H](C)CC; test = checkerboard; system = ATCC 700603; setting = together with: gentamicin; endpoint = FIC index; result = 0.375
Compound = COc1ccc2ccc3c(c2c1)C=[N+]1C2CCCCC2[N+]2=Cc4ccccc4[O][Au-]21[O]3.F[P-](F)(F)(F)(F)F (stereo not drawn); test = bacterial growth, broth microdilution; system = carbapenem-resistant; setting = 24 h; endpoint = MIC; result = > 20 µM
Compound = CCCCCCCCCCCCCCCC(=O)NCCCC[C@H](NC(=O)[C@H](CCCNC(=N)N)NC(=O)[C@H](Cc1ccc(O)cc1)NC(=O)[C@H](CC(C)C)NC(=O)[C@H](CCCNC(=N)N)NC(=O)CNS(=O)(=O)c1ccc(N)cc1)C(N)=O; system = ATCC 13883, C57BL/6 mouse, pneumonia model; setting = intratracheal, 2 mg/kg; endpoint = survival rate; result = 80%
Compound = CCCC(=O)NCC(=O)N[C@@H](CC(C)C)C(=O)N[C@@H](CC(C)C)C(=O)N[C@@H](CCCCN)C(=O)N[C@@H](CCCNC(=N)N)C(=O)N[C@H](C(=O)N[C@@H](CCCCN)C(=O)N[C@H](C(=O)N[C@@H](CC(C)C)C(=O)N[C@@H](CC(C)C)C(=O)NCCCC[C@H](NC(=O)[C@H](CC(C)C)NC(=O)[C@H](CC(C)C)NC(=O)[C@@H](NC(=O)[C@H](CCCCN)NC(=O)[C@@H](NC(=O)[C@H](CCCNC(=N)N)NC(=O)[C@H](CCCCN)NC(=O)[C@H](CC(C)C)NC(=O)[C@H](CC(C)C)NC(=O)CNC(=O)CCC)[C@@H](C)CC)[C@@H](C)O)C(=O)NCCCC[C@H](NC(=O)[C@H](CCCCNC(=O)[C@H](CC(C)C)NC(=O)[C@H](CC(C)C)NC(=O)[C@@H](NC(=O)[C@H](CCCCN)NC(=O)[C@@H](NC(=O)[C@H](CCCNC(=N)N)NC(=O)[C@H](CCCCN)NC(=O)[C@H](CC(C)C)NC(=O)[C@H](CC(C)C)NC(=O)CNC(=O)CCC)[C@@H](C)CC)[C@@H](C)O)NC(=O)[C@H](CC(C)C)NC(=O)[C@H](CC(C)C)NC(=O)[C@@H](NC(=O)[C@H](CCCCN)NC(=O)[C@@H](NC(=O)[C@H](CCCNC(=N)N)NC(=O)[C@H](CCCCN)NC(=O)[C@H](CC(C)C)NC(=O)[C@H](CC(C)C)NC(=O)CNC(=O)CCC)[C@@H](C)CC)[C@@H](C)O)C(N)=O)[C@@H](C)O)[C@@H](C)CC; test = checkerboard; system = ATCC 700603; setting = together with: polymyxin B; endpoint = FIC index; result = 0.125
Compound = COc1ccc2c(c1)[O][Au-]13[O]c4ccc5ccc(OC)cc5c4C=[N+]1C1CCCCC1[N+]3=C2.F[P-](F)(F)(F)(F)F (stereo not drawn); test = bacterial growth, broth microdilution; system = carbapenem-resistant; setting = 24 h; endpoint = MIC; result = > 20 µM
Compound = C[C@@](O)(C(F)F)[C@H](NC(=O)c1ccc(C#CC#CC2CC2)cc1)C(=O)NO; test = broth microdilution; system = 10031; setting = together with: mouse plasma 50%; scale = relative to: CAMHB alone; endpoint = MIC fold increase; result = 4
Compound = COc1ccc(-c2ccn(CC[C@](C)(C(=O)NO)S(C)(=O)=O)c(=O)c2)c(F)c1; test = microbial growth; setting = clinical isolate; endpoint = MIC90; result = 1 µg/mL (≈ 2.42 µM)
Compound = COc1ccc2ccc3c(c2c1)C=[N+]1C2CCCCC2[N+]2=Cc4cccc(C)c4[O][Au-]21[O]3.F[P-](F)(F)(F)(F)F (stereo not drawn); test = bacterial growth, broth microdilution; system = carbapenem-resistant clinical isolate; setting = 24 h; endpoint = MIC; result = 20 µM
Compound = CC[C@H](C)[C@H](NC(=O)[C@H](CCCNC(=N)N)NC(=O)[C@H](CCCCN)NC(=O)[C@H](CC(C)C)NC(=O)[C@H](CC(C)C)NC(=O)CN)C(=O)N[C@@H](CCCCN)C(=O)N[C@H](C(=O)N[C@@H](CC(C)C)C(=O)N[C@@H](CC(C)C)C(=O)NCCCC[C@H](NC(=O)[C@H](CC(C)C)NC(=O)[C@H](CC(C)C)NC(=O)[C@@H](NC(=O)[C@H](CCCCN)NC(=O)[C@@H](NC(=O)[C@H](CCCNC(=N)N)NC(=O)[C@H](CCCCN)NC(=O)[C@H](CC(C)C)NC(=O)[C@H](CC(C)C)NC(=O)CN)[C@@H](C)CC)[C@@H](C)O)C(N)=O)[C@@H](C)O; test = checkerboard; system = ATCC 700603; setting = together with: rifampicin; endpoint = FIC index; result = 0.562
Compound = COc1ccc2ccc3c(c2c1)C=[N+]1C2CCCCC2[N+]2=Cc4c(OC)cccc4[O][Au-]21[O]3.F[P-](F)(F)(F)(F)F (stereo not drawn); test = bacterial growth, broth microdilution; system = carbapenem-resistant; setting = 24 h; endpoint = MIC; result = > 20 µM
Compound = CC[C@H](C)[C@H](NC(=O)[C@H](C)NC(=O)[C@@H](NC(=O)[C@H](CC(=O)O)NC(=O)[C@H](CCCCN)NC(=O)[C@H](CO)NC(=O)[C@@H](NC(=O)[C@H](CC(N)=O)NC(=O)[C@H](C)NC(=O)[C@@H](NC(=O)[C@H](CCC(=O)O)NC(=O)[C@H](CCCCN)NC(=O)[C@@H](NC(=O)[C@@H](NC(=O)[C@H](Cc1c[nH]cn1)NC(=O)[C@H](CCCCN)NC(=O)[C@@H](NC(=O)[C@H](CCCCN)NC(=O)[C@H](CCCCN)NC(=O)[C@@H](NC(=O)[C@H](CC(C)C)NC(=O)[C@H](CCCCN)NC(=O)[C@H](CC(N)=O)NC(=O)[C@H](Cc1ccccc1)NC(=O)[C@H](CCCNC(=N)N)NC(=O)[C@H](CCCCN)NC(=O)[C@H](CCCNC(=N)N)NC(=O)[C@H](Cc1ccccc1)NC(=O)CN)C(C)C)C(C)C)[C@@H](C)O)[C@@H](C)CC)[C@@H](C)O)C(C)C)C(C)C)C(=O)N[C@H](C(=O)N[C@@H](C)C(=O)NCC(=O)N[C@@H](CO)C(=O)NCC(=O)N[C@H](C(=O)N[C@@H](C)C(=O)N[C@H](C(=O)NCC(=O)N[C@@H](C)C(=O)N[C@@H](C)C(=O)N[C@@H](CCSC)C(N)=O)C(C)C)C(C)C)C(C)C; system = isolate RKI 93/10, CAMHB; endpoint = MIC; result = 4 µg/mL

Repeated from above:
Compound = NC(CNC(CNC(CC(=O)O)C(=O)O)C(=O)O)C(=O)O (stereo not drawn); system = N11-2218 NDM-1-positive, CD-1 mice; setting = dose not given; endpoint = tissue bacterial load; result = no effect
